Assay results gathered from unrelated publications.
A part holds a random share of what one study measured.
Chain of UniProt P10721 (whole entry, unmodified, looked up): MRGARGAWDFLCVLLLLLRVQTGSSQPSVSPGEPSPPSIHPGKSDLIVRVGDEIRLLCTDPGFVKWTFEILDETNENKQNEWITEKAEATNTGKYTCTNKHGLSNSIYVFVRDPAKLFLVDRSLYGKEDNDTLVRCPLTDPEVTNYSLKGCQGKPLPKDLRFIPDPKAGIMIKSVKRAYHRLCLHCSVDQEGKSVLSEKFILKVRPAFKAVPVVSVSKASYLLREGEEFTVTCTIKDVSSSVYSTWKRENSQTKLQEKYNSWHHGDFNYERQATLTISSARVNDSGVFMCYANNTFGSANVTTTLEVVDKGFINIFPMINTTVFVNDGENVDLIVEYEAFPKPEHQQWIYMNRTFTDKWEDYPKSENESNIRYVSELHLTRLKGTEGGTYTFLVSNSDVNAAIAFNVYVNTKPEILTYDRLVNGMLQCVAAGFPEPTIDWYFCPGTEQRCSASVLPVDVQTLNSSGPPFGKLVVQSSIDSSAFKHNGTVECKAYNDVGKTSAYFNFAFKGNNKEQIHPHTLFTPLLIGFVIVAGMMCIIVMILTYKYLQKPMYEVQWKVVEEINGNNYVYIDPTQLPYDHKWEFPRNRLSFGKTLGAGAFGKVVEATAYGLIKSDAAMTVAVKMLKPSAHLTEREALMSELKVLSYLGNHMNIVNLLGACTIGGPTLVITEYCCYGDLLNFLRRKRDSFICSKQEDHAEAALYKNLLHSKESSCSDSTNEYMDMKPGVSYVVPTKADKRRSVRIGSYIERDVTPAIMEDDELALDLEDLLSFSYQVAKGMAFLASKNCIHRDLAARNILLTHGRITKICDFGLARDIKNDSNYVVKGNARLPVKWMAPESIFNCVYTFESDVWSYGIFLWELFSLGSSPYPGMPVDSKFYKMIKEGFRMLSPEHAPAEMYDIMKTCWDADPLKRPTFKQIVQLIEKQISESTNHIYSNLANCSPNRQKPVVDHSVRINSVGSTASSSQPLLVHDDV
Chain of UniProt Q08345 (whole entry, looked up): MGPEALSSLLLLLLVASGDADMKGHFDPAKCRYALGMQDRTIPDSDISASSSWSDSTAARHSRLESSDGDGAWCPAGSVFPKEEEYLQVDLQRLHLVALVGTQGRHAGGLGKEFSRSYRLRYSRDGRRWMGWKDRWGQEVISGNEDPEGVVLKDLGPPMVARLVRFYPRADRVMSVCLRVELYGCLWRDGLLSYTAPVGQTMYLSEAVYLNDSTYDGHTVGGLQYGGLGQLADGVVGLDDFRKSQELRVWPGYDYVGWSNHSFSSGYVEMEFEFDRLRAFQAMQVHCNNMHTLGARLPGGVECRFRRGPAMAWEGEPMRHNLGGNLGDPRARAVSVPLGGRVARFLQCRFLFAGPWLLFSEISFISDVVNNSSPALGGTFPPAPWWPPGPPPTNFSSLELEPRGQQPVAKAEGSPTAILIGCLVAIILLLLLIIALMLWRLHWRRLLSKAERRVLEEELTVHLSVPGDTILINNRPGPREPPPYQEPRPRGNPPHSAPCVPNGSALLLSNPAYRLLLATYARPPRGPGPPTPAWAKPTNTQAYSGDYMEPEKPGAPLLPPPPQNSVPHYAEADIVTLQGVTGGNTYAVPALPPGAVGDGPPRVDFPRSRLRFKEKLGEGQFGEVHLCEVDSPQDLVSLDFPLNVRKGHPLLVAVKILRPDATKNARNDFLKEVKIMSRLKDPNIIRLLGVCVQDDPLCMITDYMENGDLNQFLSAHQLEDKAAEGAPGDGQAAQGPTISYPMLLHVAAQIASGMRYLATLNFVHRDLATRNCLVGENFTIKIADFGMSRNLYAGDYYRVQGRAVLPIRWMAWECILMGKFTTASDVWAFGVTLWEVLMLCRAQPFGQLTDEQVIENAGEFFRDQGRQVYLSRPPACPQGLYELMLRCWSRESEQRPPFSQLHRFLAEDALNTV
Chain of UniProt Q13976 (whole entry, looked up): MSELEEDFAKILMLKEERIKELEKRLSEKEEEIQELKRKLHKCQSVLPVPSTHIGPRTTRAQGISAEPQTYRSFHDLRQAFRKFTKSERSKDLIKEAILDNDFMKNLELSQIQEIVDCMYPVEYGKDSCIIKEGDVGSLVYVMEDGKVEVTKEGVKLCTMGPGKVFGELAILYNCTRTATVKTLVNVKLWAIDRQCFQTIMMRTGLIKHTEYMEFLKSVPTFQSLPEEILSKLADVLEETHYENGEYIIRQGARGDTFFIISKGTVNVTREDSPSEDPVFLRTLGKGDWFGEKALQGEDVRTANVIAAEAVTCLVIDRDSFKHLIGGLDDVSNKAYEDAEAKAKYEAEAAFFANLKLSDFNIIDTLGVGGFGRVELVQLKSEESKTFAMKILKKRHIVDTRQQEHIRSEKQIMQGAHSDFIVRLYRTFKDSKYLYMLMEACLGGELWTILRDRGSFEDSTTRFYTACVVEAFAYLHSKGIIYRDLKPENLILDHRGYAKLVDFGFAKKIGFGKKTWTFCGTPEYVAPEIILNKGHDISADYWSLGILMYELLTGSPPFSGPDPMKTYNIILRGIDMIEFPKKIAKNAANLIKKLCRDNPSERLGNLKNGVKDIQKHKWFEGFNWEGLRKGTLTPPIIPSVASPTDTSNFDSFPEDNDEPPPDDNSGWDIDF
Chain of UniProt Q99558 (whole entry, looked up): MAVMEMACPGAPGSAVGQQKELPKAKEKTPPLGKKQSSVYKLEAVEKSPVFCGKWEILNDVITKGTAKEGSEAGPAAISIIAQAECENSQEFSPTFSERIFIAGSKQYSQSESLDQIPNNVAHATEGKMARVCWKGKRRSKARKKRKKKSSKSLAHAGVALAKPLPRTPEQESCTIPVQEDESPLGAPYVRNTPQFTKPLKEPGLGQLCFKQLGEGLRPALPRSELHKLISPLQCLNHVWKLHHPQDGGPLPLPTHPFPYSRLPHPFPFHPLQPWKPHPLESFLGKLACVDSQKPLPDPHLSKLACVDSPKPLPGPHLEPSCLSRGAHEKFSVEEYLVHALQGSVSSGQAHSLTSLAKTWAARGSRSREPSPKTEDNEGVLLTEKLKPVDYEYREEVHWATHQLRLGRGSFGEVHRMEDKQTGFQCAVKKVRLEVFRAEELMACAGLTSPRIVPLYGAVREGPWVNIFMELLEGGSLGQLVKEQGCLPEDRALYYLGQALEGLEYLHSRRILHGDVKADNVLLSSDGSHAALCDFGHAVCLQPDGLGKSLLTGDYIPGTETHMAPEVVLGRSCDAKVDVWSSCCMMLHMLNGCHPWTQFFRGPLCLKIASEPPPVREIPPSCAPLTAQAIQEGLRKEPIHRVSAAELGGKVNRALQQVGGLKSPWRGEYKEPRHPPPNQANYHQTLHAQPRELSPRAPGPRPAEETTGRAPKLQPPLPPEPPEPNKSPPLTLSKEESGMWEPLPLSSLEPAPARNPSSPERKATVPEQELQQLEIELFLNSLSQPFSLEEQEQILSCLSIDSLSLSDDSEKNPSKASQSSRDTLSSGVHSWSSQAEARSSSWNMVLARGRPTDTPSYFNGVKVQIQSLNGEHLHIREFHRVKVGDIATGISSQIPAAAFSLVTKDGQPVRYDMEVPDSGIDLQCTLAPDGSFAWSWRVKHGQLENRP
Chain of UniProt Q9UBE8 (whole entry, looked up): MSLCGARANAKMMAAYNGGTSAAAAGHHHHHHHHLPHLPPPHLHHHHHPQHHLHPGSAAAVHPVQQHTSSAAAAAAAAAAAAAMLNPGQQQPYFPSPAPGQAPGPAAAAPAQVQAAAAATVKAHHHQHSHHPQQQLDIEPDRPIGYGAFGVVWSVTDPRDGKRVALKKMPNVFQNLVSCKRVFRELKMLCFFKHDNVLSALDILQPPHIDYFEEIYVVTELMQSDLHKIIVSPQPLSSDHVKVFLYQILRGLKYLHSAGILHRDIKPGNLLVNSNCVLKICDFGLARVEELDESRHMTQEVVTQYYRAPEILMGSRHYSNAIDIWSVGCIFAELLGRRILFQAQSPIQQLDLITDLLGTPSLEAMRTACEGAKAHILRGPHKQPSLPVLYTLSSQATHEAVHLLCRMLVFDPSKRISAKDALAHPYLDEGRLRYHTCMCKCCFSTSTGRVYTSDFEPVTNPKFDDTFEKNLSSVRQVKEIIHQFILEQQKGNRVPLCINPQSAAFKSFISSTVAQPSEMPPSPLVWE

Series 1
SMILES: CCC(=N\O)/C(C)=C/c1ccc(F)cc1
Effect on: cell-free assay
Technique: competition with immobilised ligand
Tested at: 1 µM
Measurement: remaining binding
PKN1 (Homo sapiens, UniProt Q16512): 100%
HIPK2 (Homo sapiens, UniProt Q9H2X6): 100%
KIT (Homo sapiens, UniProt P10721, V559D/V654A): 73%
Ribosomal protein S6 kinase alpha-2, C-terminal kinase domain (RPS6KA2, Homo sapiens, UniProt Q15349): 100%
PIKFYVE (Homo sapiens, UniProt Q9Y2I7): 92%
Tyrosine-protein kinase ABL1, non-phosphorylated (ABL1, Homo sapiens, UniProt P00519): 83%
NLK (Homo sapiens, UniProt Q9UBE8): 100%
CDKL1 (Homo sapiens, UniProt Q00532): 81%
Ribosomal protein S6 kinase alpha-4, C-terminal kinase domain (RPS6KA4, Homo sapiens, UniProt O75676): 81%
EGFR (Homo sapiens, UniProt P00533, G719S): 67%
TNK2 (Homo sapiens, UniProt Q07912): 85%
MAP3K14 (Homo sapiens, UniProt Q99558): 84%
PRKG1 (Homo sapiens, UniProt Q13976): 100%
KIT (Homo sapiens, UniProt P10721, D816V): 87%
DCLK3 (Homo sapiens, UniProt Q9C098): 77%
DDR1 (Homo sapiens, UniProt Q08345): 89%

Series 2
Target: Mitogen-activated protein kinase kinase kinase 11 (MAP3K11, Homo sapiens, UniProt Q16584)
Chain of UniProt Q16584 (whole entry, looked up): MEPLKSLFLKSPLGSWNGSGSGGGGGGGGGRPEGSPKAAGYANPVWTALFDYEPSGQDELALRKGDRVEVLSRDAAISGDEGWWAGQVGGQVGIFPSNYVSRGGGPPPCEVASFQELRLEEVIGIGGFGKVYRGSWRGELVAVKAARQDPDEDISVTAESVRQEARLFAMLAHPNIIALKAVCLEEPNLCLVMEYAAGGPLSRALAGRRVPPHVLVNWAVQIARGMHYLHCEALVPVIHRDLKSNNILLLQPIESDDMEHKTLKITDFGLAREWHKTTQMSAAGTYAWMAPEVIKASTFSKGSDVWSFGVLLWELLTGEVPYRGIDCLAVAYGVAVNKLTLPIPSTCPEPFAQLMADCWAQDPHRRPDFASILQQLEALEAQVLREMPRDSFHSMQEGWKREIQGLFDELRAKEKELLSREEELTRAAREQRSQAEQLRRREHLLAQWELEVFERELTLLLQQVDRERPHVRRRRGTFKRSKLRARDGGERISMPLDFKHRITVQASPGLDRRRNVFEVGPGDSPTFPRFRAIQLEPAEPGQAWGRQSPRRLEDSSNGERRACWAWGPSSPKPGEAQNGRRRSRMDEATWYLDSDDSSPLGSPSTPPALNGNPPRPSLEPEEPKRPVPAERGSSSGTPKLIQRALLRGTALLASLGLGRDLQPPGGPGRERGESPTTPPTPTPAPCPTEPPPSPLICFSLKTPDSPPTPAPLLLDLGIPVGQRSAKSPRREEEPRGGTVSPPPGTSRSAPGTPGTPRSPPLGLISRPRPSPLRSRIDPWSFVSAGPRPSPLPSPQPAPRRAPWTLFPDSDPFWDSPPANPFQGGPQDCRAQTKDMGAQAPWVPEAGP
Effect on: enzyme activity
Mode: inhibitor
Tested at: 0.5 µM
Relative to: control
Measurement: remaining activity
Cc1cncc2cccc(S(=O)(=O)N3CCCN(C(=O)CN)C[C@@H]3C)c12: 98.4%
Cc1ccc(NC2=CC(=O)c3sc(C)nc3C2=O)cc1: 101%
CC[n+]1c(/C=C/N(C)c2ccccc2)n(-c2ccccc2)c2ccc(-c3nc4ccccc4s3)cc21: 102%
N#CC(=C(N)Sc1ccc(N)cc1)c1ccccc1C(F)(F)F: 99.9%
O=S(=O)(NCCNC/C=C/c1ccc(Br)cc1)c1cccc2cnccc12: 95.6%
COc1ccc(S(=O)(=O)N(CCO)c2ccccc2CN(C)CC=Cc2ccc(Cl)cc2)cc1: 99.3%
CCCC(=O)Oc1ccc2[nH]c(C(=O)c3cc4ccccc4[nH]3)cc2c1: 98.7%
CCc1[nH]c(-c2ccc(OC)cc2)nc1-c1ccncc1: 96.7%
Fc1ccc(-c2nc3n(c2-c2ccncc2)CCS3)cc1: 95.7%
Nc1ncnc2c1cnn2-c1ccccc1: 96%
O=C1Cc2c([nH]c3ccc([N+](=O)[O-])cc23)-c2ccccc2N1: 11.8%

Series 3
Medium: hydrocarbon/water
pH: 7.4
Measurement: logD
CCC[C@H]1NC(=O)[C@H](CC(C)C)NC(=O)[C@H](Cc2ccccc2)NC(=O)[C@H]2CCCN2C(=O)[C@H](CC2CCCCC2)NC(=O)[C@H](CC2CCCCC2)NC1=O: 3
CCN1CC(=O)N[C@@H](CC(C)C)C(=O)N2CCC[C@@H]2C(=O)N(C)[C@@H](C)C(=O)N[C@@H](CC2CCCCC2)C(=O)N(C)[C@@H](C)C(=O)N[C@@H](CC(C)C)C(=O)N(C)Cc2cn(nn2)CC(=O)N[C@@H](CC(C)C)C1=O: 0.111
CC[C@@H]1C(=O)N(C)[C@@H](CC(C)C)C(=O)N[C@@H](CC(C)C)C(=O)N2CCC[C@@H]2C(=O)N(C)[C@@H](Cc2ccc(O)cc2)C(=O)N[C@@H](CC(C)C)C(=O)N1C: 1.38
CC[C@H]1C(=O)N[C@@H](CC(C)C)C(=O)N(C)[C@@H](C)C(=O)N[C@@H](CC(C)C)C(=O)N(C)Cc2cn(nn2)CC(=O)N[C@@H](CC(C)C)C(=O)N(C)[C@@H](C)C(=O)N[C@@H](CC(C)C)C(=O)N2CCC[C@@H]2C(=O)N1C: 0.234
CCC[C@H]1C(=O)N[C@@H](CC)C(=O)N(C)[C@@H](C)C(=O)N[C@@H](CC(C)C)C(=O)N(C)Cc2cn(nn2)CC(=O)N[C@@H](CC(C)C)C(=O)N(C)[C@@H](C)C(=O)N[C@@H](CC(C)C)C(=O)N2CCC[C@@H]2C(=O)N1C: -0.345
CCCCCN1CC(=O)N[C@@H](Cc2ccccc2)C(=O)N2CCC[C@@H]2C(=O)N(C)[C@@H](CC(C)C)C(=O)N[C@@H](C)C(=O)N(CCCOC(C)C)CC(=O)N[C@@H](CC(C)C)C(=O)N2CCC[C@@H]2C(=O)N(C)[C@@H](CC(C)C)C(=O)N[C@@H](C)C1=O: 2.32
CC(C)C[C@@H]1NC(=O)[C@H](C)N(C)C(=O)[C@H](CC2CCCCC2)NC(=O)[C@H](C)N(C)C(=O)[C@H]2CCCN2C(=O)[C@H](CC2CCCCC2)NC(=O)CN(CC(C)C)C(=O)[C@H](C2CCCCC2)NC(=O)Cn2cc(nn2)CN(C)C1=O: 2.66
CC[C@H]1NC(=O)[C@H](CC(C)C)NC(=O)[C@H](Cc2ccc(O)cc2)NC(=O)[C@H]2CCCN2C(=O)[C@H](CC2CCCCC2)NC(=O)[C@H](CC2CCCCC2)NC1=O: 0.395
CCCCCN1CC(=O)NC(CC(C)C)C(=O)N(C)C(C)C(=O)NC(C)C(=O)N2CCCC2C(=O)N(CCCOC(C)C)CC(=O)NC(CC(C)C)C(=O)N(C)C(C)C(=O)NC(CC(C)C)C(=O)N2CCCC2C1=O (stereo not shown): 2.55
CCCN1CC(=O)N[C@@H](CC(C)C)C(=O)N2CCC[C@@H]2C(=O)N(C)[C@@H](C)C(=O)N[C@@H](CC2CCCCC2)C(=O)N(C)[C@@H](C)C(=O)N[C@@H](CC(C)C)C(=O)N(C)Cc2cn(nn2)CC(=O)N[C@@H](CC(C)C)C1=O: 0.711
CCCN1CC(=O)N[C@@H](CC(C)C)C(=O)N2CCC[C@@H]2C(=O)N(C)[C@@H](C)C(=O)N[C@@H](CC(C)C)C(=O)N(C)[C@@H](C)C(=O)N[C@@H](CC(C)C)C(=O)N(C)Cc2cn(nn2)CC(=O)N[C@@H](CC(C)C)C1=O: -0.403

Series 4
Cell line: HH
Tested at: 2 µM
Time: 48 h
Relative to: untreated
Measurement: viability
CC(C)n1nc(-c2ccc3oc(N)nc3c2)c2c(N)ncnc21: 56.9%
CC(C)(C)c1nc(-c2cccc(NS(=O)(=O)c3c(F)cccc3F)c2F)c(-c2ccnc(N)n2)s1: 49.1%
O=C(NOCC(O)CO)c1cc(Br)c(F)c(F)c1Nc1ccc(I)cc1F (stereo not shown): 96%
Cc1c(NC(=O)OC[C@@H]2COCCN2)cn2ncnc(Nc3ccc4c(cnn4Cc4cccc(F)c4)c3)c12: 126%
c1cncc(CN2CCC(n3ncc4c(N5CCOCC5)nc(-c5ccc6[nH]ccc6c5)nc43)CC2)c1: 40.1%
Nc1ncnc2c1c(-c1cnc3[nH]ccc3c1)nn2C1CCCC1: 30.9%
O=C1NC(=O)C(=Cc2ccc(-c3ccc(F)cc3)o2)S1 (stereo in doubt): 86.7%
CNC(=O)c1c(F)cccc1Nc1nc(Nc2cc3c(ccn3C(=O)CN(C)C)cc2OC)nc2[nH]ccc12: 87.3%
COc1cccc(-c2cc(=O)c3ccccc3o2)c1N: 99.9%
CNC(=O)c1cc(Oc2ccc(NC(=O)Nc3cc(C(C)(C)C)nn3-c3ccc4ncccc4c3)c(F)c2)ccn1: 76.6%
C=CC(=O)Nc1cccc(Nc2nc(Nc3ccc(Oc4ccnc(C(=O)NC)c4)cc3)ncc2F)c1: 73.8%
CS(=O)(=O)CCNCc1ccc(-c2ccc3ncnc(Nc4ccc(OCc5cccc(F)c5)c(Cl)c4)c3c2)o1: 90.3%
Cc1ccc(S(=O)(=O)/C=C/C#N)cc1: 93.4%
OC(c1cc(-c2ccc(Cl)cc2)nc2ccccc12)C1CCCCN1 (stereo not shown): 80%
COc1cc2nccc(Oc3ccc(NC(=O)NC4CC4)c(Cl)c3)c2cc1C(N)=O: 56.9%
C=CC(=O)Nc1cccc(Nc2nc(Nc3ccc(NC4CN(CCF)C4)cc3OC)ncc2C(F)(F)F)c1: 67.5%
O=C(NCCO)c1cccc(-c2cc(Nc3ccc(OC(F)(F)F)cc3)ncn2)c1: 82%
COc1ccc2cc(-c3nc(-c4ccc([S+](C)[O-])cc4)[nH]c3-c3ccncc3)ccc2c1 (stereo not shown): 88.7%
COc1cc(C(=O)NC2CCN(C)CC2)ccc1Nc1ncc2c(n1)N(C1CCCC1)CC(F)(F)C(=O)N2C: 30.3%
CCn1c2ccccc2c2cc(Nc3ccnc(NCCCN4CCOCC4)n3)ccc21: 105%

Some of these lines once more (series 2):
O=S(=O)(NCCNC/C=C/c1ccc(Br)cc1)c1cccc2cnccc12: 95.6%
COc1ccc(S(=O)(=O)N(CCO)c2ccccc2CN(C)CC=Cc2ccc(Cl)cc2)cc1: 99.3%
CCCC(=O)Oc1ccc2[nH]c(C(=O)c3cc4ccccc4[nH]3)cc2c1: 98.7%
